Results pooled from the literature.
Lines come from different studies, so protocols differ. Numbers after ± are the reported error.

Compound | target or system | test | system | conditions | scale | quantity | result
CC(C)(C)C(=O)OCOP(=O)(OCOC(=O)C(C)(C)C)C1CCCN(O)C1=O (stereo not shown) | SK-MEL-2 | – | – | – | – | TGI | 8.76 µM
CCCCCC(=O)NCCCC[C@H](NC(=O)CCCCC)C(=O)N[C@@H](CCCCNC(=O)CCCCC)C(=O)NCC(=O)NCC(=O)NCC(=O)N[C@@H](CS)C(=O)N[C@@H](CCCNC(=N)N)C(=O)N[C@@H](CCCCN)C(=O)N1CCC[C@H]1C(=O)N[C@@H](CS)C(=O)N[C@@H](CCCNC(=N)N)C(=O)N[C@@H](CCCCN)C(=O)N1CCC[C@H]1C(N)=O | Candida albicans | broth microdilution | SP 3903, RPMI-1640 | 48 h, 30 °C | – | MIC | 32 µM
CC1(C)S[C@@H]2[C@H](NC(=O)[C@H](NC(=O)C3=C(O)C(c4ccccc4F)NC3=O)c3ccccc3)C(=O)N2[C@H]1C(=O)O (stereo partly shown) | Escherichia coli | broth microdilution | isolate IU 356 A, KPC-3, VIM-1, TEM | together with: clavulanic acid 6 µg/mL | – | MIC | > 200 µg/mL
COc1ccccc1-c1n[nH]c2nc(N[C@H]3CC[C@H](NS(=O)(=O)CC(C)C)CC3)ncc12 | – | bead binding, competition bead pull-down, item: LINJ.20.0110 | Leishmania donovani extract | 10 µM | relative to: vehicle | relative abundance | 0.99
Cc1cc(Oc2nc(N3CC[C@@H](c4ccncc4)C3)ncc2F)[nH]n1 | Mycobacterium tuberculosis | OD | H37Rv PurF CRISPRi knockdown | 6.1e-05 µM, together with: anhydrotetracycline low | – | normalised growth | 95%
O=C1NC2(CC2)COc2ncc(F)cc2[C@H]2COCCN2c2ccn3ncc1c3n2 | – | – | Sprague-Dawley rat, male, serum | oral, 10 mg/kg/day, end of recovery, 4-week subacute toxicity | – | serum hepatic lipase activity | 3.4 ± 0.3 U/L
CC(C)CCCCCCCCC/C=C/C(=O)N[C@@H](CC(=O)O)C(=O)N[C@H]1CNC(=O)[C@@H]2CCCN2C(=O)[C@H](C(C)C)NC(=O)[C@@H](CN)NC(=O)CNC(=O)[C@H](CC(=O)O)NC(=O)CNC(=O)[C@H](CC(=O)O)NC(=O)[C@H](CC(=O)O)NC(=O)[C@H]2CCCCN2C1=O | Staphylococcus simulans | broth microdilution | 22, Mueller-Hinton broth, Mg2+ 10 mg/L | 16 h, 30 °C, together with: Ca2+ 0 mM | – | MIC | > 128 µg/mL
C#CCOc1ccc(CN[C@@]2(C)C[C@H](O[C@H]3[C@H](Oc4c5cc6cc4Oc4ccc(cc4Cl)[C@@H](O)[C@@H](NC(=O)[C@@H](CC(C)C)NC)C(=O)N[C@@H](CC(N)=O)C(=O)N[C@H]6C(=O)N[C@H]4C(=O)N[C@H](C(=O)N[C@H](C(=O)O)c6cc(O)cc(O)c6-c6cc4ccc6O)[C@H](O)c4ccc(c(Cl)c4)O5)O[C@H](CO)[C@@H](O)[C@@H]3O)O[C@@H](C)[C@H]2O)cc1OC | Pseudomonas aeruginosa | broth microdilution | ATCC 17978, cation-adjusted Mueller-Hinton broth | – | – | MIC | > 79 µM
CCCCCCCC(=O)NCCCC[C@H](NC(=O)CCCCCCC)C(=O)N[C@@H](CCCCNC(=O)CCCCCCC)C(=O)NCC(=O)NCC(=O)NCC(=O)N[C@@H](CS)C(=O)N[C@@H](CCCNC(=N)N)C(=O)N[C@@H](CCCCN)C(=O)N1CCC[C@H]1C(=O)N[C@@H](CS)C(=O)N[C@@H](CCCNC(=N)N)C(=O)N[C@@H](CCCCN)C(=O)N1CCC[C@H]1C(=O)N[C@@H](CS)C(=O)N[C@@H](CCCNC(=N)N)C(=O)N[C@@H](CCCCN)C(=O)N1CCC[C@H]1C(=O)N[C@@H](CS)C(=O)N[C@@H](CCCNC(=N)N)C(=O)N[C@@H](CCCCN)C(=O)N1CCC[C@H]1C(N)=O | Candida albicans | broth microdilution | 17546, RPMI-1640 | 48 h, 30 °C | – | MIC | 32 µM
CCCCCCCCn1cc[n+](CCCCOc2cc(OCCCC[n+]3ccn(CCCCCCCC)c3)cc(OCCCC[n+]3ccn(CCCCCCCC)c3)c2)c1.[Br-].[Br-].[Br-] | eight bacterial strains | – | – | – | – | MIC | ≤ 2 µM
CC(C)CCCCCCCCC/C=C/C(=O)N[C@@H](CC(N)=O)C(=O)N[C@H]1CNC(=O)[C@@H]2CCCN2C(=O)[C@H](C(C)C)NC(=O)[C@@H](CN)NC(=O)CNC(=O)[C@H](CC(=O)O)NC(=O)CNC(=O)[C@H](CC(=O)O)NC(=O)[C@H](CC(=O)O)NC(=O)[C@H]2CCCCN2C1=O | Staphylococcus simulans | broth microdilution | 22, Mueller-Hinton broth, Mg2+ 10 mg/L | 16 h, 30 °C, together with: Ca2+ 10 mM | – | MIC | 1 µg/mL
COc1ccccc1-c1n[nH]c2nc(NC3CCN(C(=O)Cc4ccc(F)cc4F)CC3)ncc12 | – | bead binding, competition bead pull-down, item: LINJ.36.6760 | Leishmania donovani axenic amastigote extract | 10 µM | relative to: vehicle | relative abundance | 0.75
CCCCCCCC(=O)NCCCC[C@H](NC(=O)CCCCCCC)C(=O)N[C@@H](CCCCNC(=O)CCCCCCC)C(=O)NCC(=O)NCC(=O)NCC(=O)N[C@@H](CS)C(=O)N[C@@H](CCCNC(=N)N)C(=O)N[C@@H](CCCCN)C(=O)N1CCC[C@H]1C(=O)N[C@@H](CS)C(=O)N[C@@H](CCCNC(=N)N)C(=O)N[C@@H](CCCCN)C(=O)N1CCC[C@H]1C(N)=O | Candida albicans | broth microdilution | SP 3876, RPMI-1640 | 48 h, 30 °C | – | MIC | 8 µM
C[N+]1=C2C(c3ccc(Cl)cc3)=[N+]([O-])c3ccccc3N2CCC1 | Fusobacterium nucleatum | – | – | – | – | MIC | 4 to 16 µg/mL
CC[C@H](C)[C@H](N)C(=O)N[C@@H](CCCNC(=N)N)C(=O)N[C@H](C(=O)N[C@@H](Cc1c[nH]c2ccccc12)C(=O)N[C@@H](CCCCN)C(=O)N[C@@H](CCCCN)C(=O)N[C@H](C(=O)N[C@H](C(=O)N[C@@H](CCCNC(=N)N)C(=O)N[C@@H](CCCCN)C(=O)N[C@@H](Cc1c[nH]c2ccccc12)C(=O)N[C@@H](CCCCN)C(=O)N[C@@H](C)C(=O)N[C@H](C(=O)N[C@@H](Cc1c[nH]c2ccccc12)C(=O)N[C@@H](Cc1c[nH]cn1)C(N)=O)[C@@H](C)CC)C(C)C)[C@@H](C)CC)C(C)C | Listeria monocytogenes | broth dilution | KCTC 13064 | – | – | MIC | 12.5 µM
CC[C@H](C)[C@H](NC(=O)[C@H](CCCNC(=N)N)NC(=O)[C@H](CO)NC(=O)[C@H](Cc1ccc(O)cc1)NC(=O)[C@@H](NC(=O)[C@@H](NC(=O)[C@H](C)NC(=O)CNC(=O)[C@H](CCCCN)NC(=O)[C@H](CCCCN)NC(=O)CCNC(=O)CCCCCNC(=O)[C@H](CCCNC(=N)N)NC(=O)CCCCCNC(=O)[C@H](CCCNC(=N)N)NC(=O)[C@H](CCCNC(=N)N)NC(=O)CCCCCNC(=O)[C@H](CCCNC(=N)N)NC(=O)[C@H](CCCNC(=N)N)NC(=O)CCCCCNC(=O)[C@H](CCCNC(=N)N)NC(=O)[C@H](CCCNC(=N)N)NC(=O)CCCCCNC(=O)[C@@H](N)CCCNC(=N)N)C(C)C)[C@@H](C)O)C(=O)N[C@@H](CO)C(=O)NCC(=O)N[C@@H](CCC(N)=O)C(=O)N[C@@H](Cc1ccc(O)cc1)C(=O)N[C@@H](CCCCN)C(=O)O | Escherichia coli | – | ATCC 25922 | 1 h, 37 °C, after 50% human serum | – | MIC | 6 µM
CC(=O)N[C@@H](CC(C)C)C(=O)N[C@H]1CSSC[C@@H](C(=O)N2CCC[C@H]2C(N)=O)NC(=O)[C@H]([C@@H](C)O)NC(=O)[C@H](C(C)C)NC(=O)[C@H]([C@@H](C)O)NC(=O)[C@H](CCCCN)NC(=O)[C@H](CC(C)C)NC(=O)[C@H](Cc2ccccc2)NC(=O)[C@H](Cc2ccc(O)cc2)NC(=O)[C@H](CC(C)C)NC(=O)[C@H](CCCCN)NC(=O)[C@H](Cc2ccccc2)NC(=O)[C@H](CCCNC(=N)N)NC(=O)[C@H](CCC(N)=O)NC(=O)[C@H](CC(C)C)NC(=O)[C@H](CCCCN)NC(=O)[C@@H]2CCCN2C(=O)[C@H](CCCCN)NC(=O)[C@H](C(C)C)NC(=O)[C@H](CC(N)=O)NC(=O)[C@H](Cc2ccc(O)cc2)NC(=O)[C@H]([C@@H](C)O)NC1=O | Aeromonas hydrophila | broth dilution | – | 24 h | – | MIC | 5 to 10 µM
CCCCCCCC(=O)NCCCC[C@H](NC(=O)CCCCCCC)C(=O)N[C@@H](CCCCNC(=O)CCCCCCC)C(=O)NCC(=O)NCC(=O)NCC(=O)N[C@@H](CS)C(=O)N[C@@H](CCCNC(=N)N)C(=O)N[C@@H](CCCCN)C(=O)N1CCC[C@H]1C(=O)N[C@@H](CS)C(=O)N[C@@H](CCCNC(=N)N)C(=O)N[C@@H](CCCCN)C(=O)N1CCC[C@H]1C(=O)N[C@@H](CS)C(=O)N[C@@H](CCCNC(=N)N)C(=O)N[C@@H](CCCCN)C(=O)N1CCC[C@H]1C(N)=O | Candida albicans | broth microdilution | 58288, RPMI-1640 | 48 h, 30 °C | – | MIC | 8 µM
Cc1cc(C(=O)Nc2nc3cccc(C)c3n2[C@H]2CCCCN(C(=O)/C=C/CN(C)C)C2)ccn1 | Trypanosoma brucei | propidium iodide flow cytometry | bloodstream form | concentration not given, 24 h | – | cells in S phase | 16.4%

Repeated from above:
Compound | target or system | test | system | conditions | scale | quantity | result
CCCCCCCC(=O)NCCCC[C@H](NC(=O)CCCCCCC)C(=O)N[C@@H](CCCCNC(=O)CCCCCCC)C(=O)NCC(=O)NCC(=O)NCC(=O)N[C@@H](CS)C(=O)N[C@@H](CCCNC(=N)N)C(=O)N[C@@H](CCCCN)C(=O)N1CCC[C@H]1C(=O)N[C@@H](CS)C(=O)N[C@@H](CCCNC(=N)N)C(=O)N[C@@H](CCCCN)C(=O)N1CCC[C@H]1C(N)=O | Candida albicans | broth microdilution | SP 3876, RPMI-1640 | 48 h, 30 °C | – | MIC | 8 µM
